Measured values gathered from unrelated publications.
A part holds a random share of what one study measured.

Sample 1 — method: RNA Bind-n-Seq; form: RNA; medium: in vitro; tested at: 20 nM; notes: 6-mer, flanks averaged, single round; added: 150 mM KCl; baseline: input library; reading: higher = stronger binding
Target: TAR DNA-binding protein 43, full length, His tag (TARDBP, Homo sapiens, UniProt Q13148, residues 1-414)
`UGCUCA` — result for “6-mer enrichment (R)”: 0.607.
For `AGUCUU`, “6-mer enrichment (R)” read 0.57.
For `UUGGAU`, “6-mer enrichment (R)” read 0.719.
`CGCUCG`: “6-mer enrichment (R)” 0.746.
`GUAAGU` — result for “6-mer enrichment (R)”: 0.923.
`UCCUUA` — result for “6-mer enrichment (R)”: 0.576.
Under “6-mer enrichment (R)”, `ACAAAA` is recorded as 0.683.
`CUUCCA` — result for “6-mer enrichment (R)”: 0.558.
Under “6-mer enrichment (R)”, `GUCGUA` is recorded as 0.781.
For `CUUAGA`, “6-mer enrichment (R)” read 0.61.
For `AUAACG`, “6-mer enrichment (R)” read 0.715.
`CAAGGC`: “6-mer enrichment (R)” 0.87.
Under “6-mer enrichment (R)”, `AGAGUG` is recorded as 1.61.
`UCACCG`: “6-mer enrichment (R)” 0.668.
For `UGUCUU`, “6-mer enrichment (R)” read 0.621.
`AAGACA` — result for “6-mer enrichment (R)”: 0.672.
`GUUCUC` — result for “6-mer enrichment (R)”: 0.575.

Sample 2 — method: protein binding microarray; form: double-stranded DNA, one strand shown; medium: in vitro; tested at: not given; baseline: not given; reading: higher = stronger binding
Target: Histone acetyltransferase KAT6A, both winged helices, GST fusion (KAT6A, Homo sapiens, UniProt Q92794, residues 1-181)
Notes: 8-mer, flanks averaged, mean of 2 arrays, mostly near background
Residues (chain): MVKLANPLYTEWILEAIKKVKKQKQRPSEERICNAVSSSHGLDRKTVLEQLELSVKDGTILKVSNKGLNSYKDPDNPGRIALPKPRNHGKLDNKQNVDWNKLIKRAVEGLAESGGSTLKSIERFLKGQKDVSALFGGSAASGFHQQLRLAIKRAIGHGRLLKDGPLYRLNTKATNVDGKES
The E-score of `ATGAGATA` is reported as -0.0218.
The E-score of `AACATTCC` is reported as -0.00741.
For `AATTCTCA`, the E-score was -0.204.
`ACACTTTC` gave an E-score of -0.0528.
`GAGATAAA` has an E-score of 0.00225.
`AGGAAGTC` gave an E-score of -0.177.
With `ATAGACAG` the E-score was -0.113.
`CTGCGCAC` gave an E-score of 0.147.
`AACCAGAC` gave an E-score of -0.107.
`CCGCTTAC` has an E-score of 0.133.
`AAGAGTCG` has an E-score of -0.00637.
`GCCGCTGA` gave an E-score of 0.248.
The E-score of `ACAGAGAC` is reported as -0.0623.
For `ATACGACC`, the E-score was 0.0679.
For `CCCACAGA`, the E-score was -0.253.
`ATTGTTAA` gave an E-score of -0.133.
`GTTCCTTA` gave an E-score of -0.0645.
The E-score of `GACCATAA` is reported as -0.133.
With `CTCCACTA` the E-score was -0.183.

Sample 3 — method: RNA Bind-n-Seq; form: RNA; medium: in vitro; tested at: 365 nM; baseline: no-protein control; reading: higher = stronger binding
Target: RNA binding protein fox-1 homolog 2, RRM domain, GST-SBP tag (RBFOX2, Homo sapiens, UniProt O43251-10, residues 100-194)
Notes: natural RNA segment, single round, ends assumed
Shared flanks, not repeated: GGGAGUUCUACAGUCCGACGAUC … UGGAAUUCUCGGGUGCCAA
Residues (chain): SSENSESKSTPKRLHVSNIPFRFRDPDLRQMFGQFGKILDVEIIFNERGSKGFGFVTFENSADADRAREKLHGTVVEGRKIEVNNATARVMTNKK
`AUACCACAUACGCUGCACUGUUCUUAGAGGGUUUCCAUACUUACCACCGAUCUACAAGGGUUGAUCCCUGUUUUUACCAUCAAUCAUCACCCUGUGGUGCAACACUUGAA`: “RBNS enrichment (R)” 0.412.
For `AAGGUGGCCAUCUGGGGUGAGUCGAUACUGCCCUCUGCUGGUUGUUUCUAGUUCAAGCCCACAGCCAGCAACAAGCAACAAAGUGUCUUAGAAUAGGACUGGUUUUGUUU`, “RBNS enrichment (R)” read 0.586.
Under “RBNS enrichment (R)”, `GUUUGCCAUUAGGGUAUUCAUUCAGAUAAUGUUUUCCUACUAGGAAUUACAAACUUUAAACACUUUUUAAAUCUUCAAAAUAUUUAAAACAAAUUUAAAGGGCCUGUUAA` is recorded as 0.445.
`CAUGAUUCCUUGUAUUGCAUUUCUUUGCACAUAUUAUGGGCUUGUGACCCUAAACUUGCAGGCAAGAUUAGCUGCUUUAGUAAGUAGUAUUUUGUGGUCUUUUUUUUGUU` — result for “RBNS enrichment (R)”: 0.745.
Under “RBNS enrichment (R)”, `AGGGGCCUGCCAGAAAAGUCACUAACCUGUCUCAGUGUGGCCUUGUCCAGCCUUGUGUUUUCUGUAACCCCUGUUUGUGGUACGAGAUAAUGAGUCCUAUUUUUCUCUCA` is recorded as 0.281.
Under “RBNS enrichment (R)”, `UGGAUACUCAUUAAUUCUUUUGUUAAUAUUUAUUUCCAUGAUAGCAUCAUUCCAGCCAGACUUGCUGAAAAUCUACUGGUGAGGCAAAUAUAAUAUAUAUAAAUAUGCUA` is recorded as 0.46.
`AUGGAAGUGGACUGAAGCCUAUGUAGAAACACACACACACUGAACAUUGUUAUUCAUUUUGUAAAAUACUAGUCUUUAUUUUCAUUUUUUGUAAAAUUUAAACAUCGUAU` — result for “RBNS enrichment (R)”: 0.612.
`AUGCUAUGUGCCCUCUUCACUUAGAGCGAGCUUUAGUGUGUCAAGGGACUCUGCUUUCCUGUACUUCCUAAAAGUACAUUCACUAAUACUGAAGCAUCAAAGUGUAGUUU`: “RBNS enrichment (R)” 0.539.
Under “RBNS enrichment (R)”, `UGGCAUCAUAUAGUCAGUUACUGACAUGGCAUAAGACAGCAUGAAACUUUACCACAUUUAUAAAUAUGAGGGAUUUUUUCUUUUGUUGGUUUUUAACCCUUUUAGACUAA` is recorded as 1.28.
`CUUCUACUACUUGCUAUUACCUCCUUGUAUGAGAAAUGGAUUAAACUUCUAUGCCUAUGGUUGGUCACUGUGGUAUCUGCAUUUCCACCAUGACAUACAGUUUCAGGUAA` — result for “RBNS enrichment (R)”: 0.288.
`GGUUGAGAAUCACUGUGGGCGUCCAUUCUUAUUCAACUAAAUCUCCACAGGUUUUUUGAGCUGGUGUGGAUUAGUUUAACUCUUGUAUUCAACCAUUAGUGCUACCACCU`: “RBNS enrichment (R)” 0.48.
`GCCAUUCAGUGAGCACUAGGACAGCUGGGACCUCCUGCCAUUCAGUGAGCACUAGGACAGCUGGGGGCUGCGUCAGGCUACUGGCUUCCUGUGUUCUCACCACUGUCCCU`: “RBNS enrichment (R)” 0.142.

Sample 4 — method: aptamer microarray, sandwich; form: DNA with 2'F-ANA; medium: in vitro; tested at: 200 nM; added: Cy3 exosite-II aptamer, 400 nM; reading: higher = stronger binding; sequence: GGTTGGTGTGGTTGG
Target: Prothrombin, mature alpha-thrombin (F2, Homo sapiens, UniProt P00734)
Notes: whole 15-mer aptamer, many near background
`2'F-ANA at 4 5 7 8 9 10 13 15`: “mean fluorescence intensity” 47.3 a.u.
`2'F-ANA at 3 7 8 9 10 11`: “mean fluorescence intensity” 485 a.u.
Under “mean fluorescence intensity”, `2'F-ANA at 2 4 6 12 13 14 15` is recorded as 94.2 a.u.
`2'F-ANA at 5 6 7 14`: “mean fluorescence intensity” 46 a.u.
Under “mean fluorescence intensity”, `2'F-ANA at 3 5 6 8 9 10 13 15` is recorded as 52.3 a.u.
`2'F-ANA at 1 2 3 5 6 8 10 11 12 14`: “mean fluorescence intensity” 49.9 a.u.
Under “mean fluorescence intensity”, `2'F-ANA at 2 3 4 13 14` is recorded as 303 a.u.
`2'F-ANA at 2 3 7 9 10 11 12 13 14 15` — result for “mean fluorescence intensity”: 257 a.u.
For `2'F-ANA at 3 5 9 11 12 13 14 15`, “mean fluorescence intensity” read 60.8 a.u.
`2'F-ANA at 3 4 7 8 10 13 15` — result for “mean fluorescence intensity”: 295 a.u.
`2'F-ANA at 1 2 3 7 12` — result for “mean fluorescence intensity”: 458 a.u.
`2'F-ANA at 2 4 5 7 11 12 14` — result for “mean fluorescence intensity”: 76.7 a.u.
`2'F-ANA at 2 4 5 10 15`: “mean fluorescence intensity” 66.6 a.u.
Under “mean fluorescence intensity”, `2'F-ANA at 1 2 3 4 6 7 9 10 12 14` is recorded as 51.8 a.u.
`2'F-ANA at 2 4 5 8 9 10 11 12 13 15`: “mean fluorescence intensity” 46.7 a.u.
`2'F-ANA at 1 3 4 8 10 12`: “mean fluorescence intensity” 86 a.u.
For `2'F-ANA at 4 5 8 12 15`, “mean fluorescence intensity” read 147 a.u.
`2'F-ANA at 4 5 6 7 8 9 10 11 12 15`: “mean fluorescence intensity” 49.2 a.u.
Under “mean fluorescence intensity”, `2'F-ANA at 1 5 6 8 9 13 15` is recorded as 50.8 a.u.
Under “mean fluorescence intensity”, `2'F-ANA at 2 4 6 7 10 13 15` is recorded as 72.5 a.u.
Under “mean fluorescence intensity”, `2'F-ANA at 1 2 4 5 7 8 9 10 13 14 15` is recorded as 43.2 a.u.
Under “mean fluorescence intensity”, `2'F-ANA at 3 4 5 8 9 11 13 14` is recorded as 57.3 a.u.
`2'F-ANA at 2 3 4 6 7 10 11 14 15`: “mean fluorescence intensity” 154 a.u.
Under “mean fluorescence intensity”, `2'F-ANA at 2 4 6 7 8 10 11 14 15` is recorded as 57.1 a.u.
`2'F-ANA at 1 3 10 11 12 15` — result for “mean fluorescence intensity”: 108 a.u.

Sample 5 — method: universal PBM; form: double-stranded DNA, one strand shown; medium: in vitro; tested at: not given; reading: higher = stronger binding
Target: Sal-like protein 4, full length isoform B (SALL4, Homo sapiens, UniProt Q9UJQ4-2, residues 1-616)
Notes: 8-mer, flanks averaged, mean of replicates
Residues (chain): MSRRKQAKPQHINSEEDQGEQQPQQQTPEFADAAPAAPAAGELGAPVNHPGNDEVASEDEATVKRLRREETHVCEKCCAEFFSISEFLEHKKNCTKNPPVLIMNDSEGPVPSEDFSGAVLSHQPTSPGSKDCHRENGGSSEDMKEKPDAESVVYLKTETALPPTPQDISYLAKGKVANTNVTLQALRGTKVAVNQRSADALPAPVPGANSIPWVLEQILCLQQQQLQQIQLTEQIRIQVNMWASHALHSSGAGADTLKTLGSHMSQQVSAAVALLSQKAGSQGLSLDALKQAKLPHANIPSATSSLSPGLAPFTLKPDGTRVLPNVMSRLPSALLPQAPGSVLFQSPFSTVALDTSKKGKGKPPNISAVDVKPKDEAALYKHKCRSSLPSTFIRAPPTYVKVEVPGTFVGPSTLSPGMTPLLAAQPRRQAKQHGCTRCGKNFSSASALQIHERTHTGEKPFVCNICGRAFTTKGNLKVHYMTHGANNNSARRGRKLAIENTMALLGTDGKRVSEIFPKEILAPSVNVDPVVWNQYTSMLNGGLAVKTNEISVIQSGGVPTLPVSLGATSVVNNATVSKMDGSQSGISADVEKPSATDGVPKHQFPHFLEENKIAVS
The E-score of `TGATACCA` is reported as 0.133.
With `AAGGGGAT` the E-score was -0.0174.
The E-score of `CAATCGGC` is reported as -0.157.
With `TAAGCCTA` the E-score was 0.152.
The E-score of `CAGGGAGG` is reported as -0.294.
`CAACGGAA` gave an E-score of 0.081.
`TCTGATAA` gave an E-score of 0.132.
`GGACCATA` has an E-score of -0.0949.
The E-score of `ATCATCGC` is reported as 0.0886.
For `GTCCTCTA`, the E-score was -0.12.
With `TCCAATAA` the E-score was 0.296.
`CTCTTAGA` has an E-score of -0.0825.
For `ACCGCTGA`, the E-score was -0.107.
`TCCTGGAA` gave an E-score of -0.21.
With `AATGAATT` the E-score was 0.286.
`GACTAAAA` has an E-score of 0.15.
`CAATAAAC` has an E-score of 0.319.
For `AGCATGTA`, the E-score was 0.179.
